Measurements gathered from unrelated publications.
Protocols differ between the studies behind these lines. Several values in a cell are separate wells, animals, samples, runs or records. Numbers after ± are the reported error.
Chain of UniProt P10635 (whole entry, looked up): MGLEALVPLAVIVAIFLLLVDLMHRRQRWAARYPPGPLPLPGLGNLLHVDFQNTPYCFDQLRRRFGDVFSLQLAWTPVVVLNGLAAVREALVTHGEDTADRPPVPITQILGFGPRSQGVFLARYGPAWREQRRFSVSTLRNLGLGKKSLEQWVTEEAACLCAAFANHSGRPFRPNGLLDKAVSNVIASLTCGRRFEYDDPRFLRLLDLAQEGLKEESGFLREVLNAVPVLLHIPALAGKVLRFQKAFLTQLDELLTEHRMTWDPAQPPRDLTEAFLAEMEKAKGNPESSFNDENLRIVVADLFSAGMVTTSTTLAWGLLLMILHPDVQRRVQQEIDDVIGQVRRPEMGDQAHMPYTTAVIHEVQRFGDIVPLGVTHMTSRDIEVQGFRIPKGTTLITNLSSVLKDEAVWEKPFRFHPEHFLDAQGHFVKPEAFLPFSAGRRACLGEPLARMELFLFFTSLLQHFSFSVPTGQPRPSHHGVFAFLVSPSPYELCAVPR

`OC[C@H]1O[C@@H](c2ccc(Cl)c(Cc3ccc(O)cc3)c2)[C@H](O)[C@@H](O)[C@@H]1O` has a viability of 51.2 ± 1.48% (H9c2; CCK-8; 0.1 µM, with: glucose deprivation; relative to: control).
For `CC(C)OCCOCc1ccc(OCC(O)CN(N=O)C(C)C)cc1` (centres unmarked), “revertant fold increase” read 1.1 fold (Escherichia coli; Ames test; WP2 uvrA; 1580 µg/plate, 30 % hamster S9; relative to: solvent control).
`CCOC(=O)c1c(C(=O)OC)cn(CC(c2cn(C)c3ccccc23)c2cn(C)c3ccccc23)c1C` has a CC50 of > 20 µM (DH82; cell growth or viability, MTS; 24 h).
Under “maximum safe concentration”, `C=C1C(=O)OC2C1CCC(C)(O)C13C=CC(C)(C21)C1(C3)C(=O)OC2C3C(C)=CCC3=C(C)CC(OC(C)=O)C21` (centres unmarked) is recorded as 5 µM (AML12 mouse hepatocytes; MTT; 24 h, 10% FBS).
The CC50 of `CCCCn1c2ccc([N+](=O)[O-])cc2c(=O)n1Cc1ccccc1` is reported as 5.07 µM (BALB/c mouse peritoneal macrophages; cytotoxicity, resazurin; 48 h, 10% fetal bovine serum).
`CCN1CCSC1=CC=CC1=[N+](CC)CCS1` has a translation activity of 95.9% (Trypanosoma cruzi; reporter mRNA translation, inhibitor, item: Renilla luciferase mRNA; cell-free extract; concentration not given, test 1; relative to: positive over negative control).
`COC1CN([C@H]2CC[C@H]([C@@]3(C)Oc4c(Cl)cc(C(=O)NCc5c(SC)cc(C)[nH]c5=O)c(C)c4O3)CC2)C1`: “log2 fold change” 1.2 (RNA-seq, item: ELOVL6; human, whole blood; dose not given, 24 h; relative to: pretreatment baseline).
For `C=C1C(=O)OC2C1CCC(C)(O)C13C=CC(C)(C21)C1(C3)C(=O)OC2C3C(C)=CCC3C(C)(O)CCC21` (centres unmarked), “maximum safe concentration” read 40 µM (AML12 mouse hepatocytes; MTT; 24 h, 10% FBS).
The CC50 of `C[C@H]1O[C@@H]2C3=C(O[C@]2(C)[C@@]1(O)C=O)C(=O)c1c(O)cccc1C3=O` is reported as 23 µM (HFF; cell growth or viability, MTT; 48 h).
`C=C1C(=O)OC2C1CCC(C)(O)C13C=CC(C)(C21)C1(C3)C(=O)OC2C3C(C)C(=O)CC3C(=C)CC(OC(C)=O)C21` (centres unmarked): “maximum safe concentration” 10 µM (AML12 mouse hepatocytes; MTT; 24 h, 10% FBS).
For `COc1cc(N2CCN(C(=O)C3CCCN3)CC2)ccc1Nc1ncc(Cl)c(Nc2ccccc2P(C)(C)=O)n1` (centres unmarked), the viability was 11% and 12% (NCI-H3122; cell growth or viability, CCK-8; 0.5 µM, 48 h).
For `CC(C)C[C@H](NC(=O)[C@H](CC(N)=O)NC(=O)[C@H](CCCNC(=N)N)NC(=O)[C@@H](CC(C)C)NC(=O)[C@H](Cc1ccc(-c2ccccc2)cc1)NC(=O)[C@H](CC(=O)O)NC(=O)[C@H](CCCNC(=N)N)NC(=O)[C@@H](CC(C)C)NC(=O)[C@H](CCCCN)NC(=O)[C@H](CCC(N)=O)NC(=O)[C@@H](NC(=O)[C@@H](CC(C)C)NC(=O)[C@H](CCCNC(=N)N)NC(=O)[C@H](CCCCN)NC(=O)[C@H](Cc1ccc(-c2ccccc2)cc1)NC(=O)CN)C(C)C)C(=O)N[C@H](C(N)=O)C(C)C`, the HC50 was 140 µM (human erythrocytes; hemolysis; 1 h, 37 °C; relative to: Triton X-100).
With `O=C1NC2(CC2)COc2ncc(F)cc2[C@H]2COCCN2c2ccn3ncc1c3n2` the structural aberrations was 0.7% (CHL; 300 µg/mL, 4 h, without S9).
`C=C1C(=O)OC2C1CCC(C)(O)C13C=CC(C)(C21)C1(C3)C(=O)OC2C3C(C)=CC(=O)C3C(C)CC(OC(C)=O)C21` (centres unmarked): “maximum safe concentration” 40 µM (AML12 mouse hepatocytes; MTT; 24 h, 10% FBS).
`CC1OC2OC3C4=C(OC3(C)C12O)C(=O)c1c(O)cccc1C4=O` (centres unmarked) has a CC50 of 12 µM (HFF; cell growth or viability, MTT; 48 h).
The viability of `CO[C@H]1[C@H](O)[C@@H](O)[C@H](c2ccc(Cl)c(Cc3ccc(O[C@H]4CCOC4)cc3)c2)O[C@@H]1CO` is reported as 48.3 ± 2.43% (H9c2; CCK-8; 0.1 µM, with: glucose deprivation; relative to: control).
With `C[C@H](NP(=O)(O)OC[C@H]1O[C@@](C#N)(c2ccc3c(N)ncnn23)[C@H](O)[C@@H]1O)C(=O)O` the CC50 was > 100 µM (primary human hepatocytes; spare respiratory capacity, Seahorse OCR; 4 h).
`Cc1cccnc1-c1csc(C(=O)Nc2cc(Cl)cc(NS(C)(=O)=O)c2)c1` has a CC50 of 4.15 µM (HLF1; cell growth or viability, ATP luminescence; 10 days).
`C=C1C(=O)OC2C1CCC(C)(O)C13C=CC(C)(C21)C1(C3)C(=O)OC2C3C(=C(C)CC(OC(=O)C=C(C)C)C21)CC(O)C3(C)Cl` (centres unmarked): “maximum safe concentration” 10 µM (AML12 mouse hepatocytes; MTT; 24 h, 10% FBS).
The viability of `COc1cc(N2CCN(C(=O)CCOCCNC(=O)[C@@H]3CCCN3)CC2)ccc1Nc1ncc(Cl)c(Nc2ccccc2P(C)(C)=O)n1` is reported as 47% and 51% and 49% (NCI-H3122; CCK-8; 0.5 µM, 48 h).
`CC1(C)CC(c2ccc(Cl)cc2)=C2CN3CCN(c4ccc(C(=O)NS(=O)(=O)c5ccc(NCC6CCOCC6)c([N+](=O)[O-])c5)c(Oc5cnc6[nH]ccc6c5)c4)CC3OC2C1` (centres unmarked) — result for metabolite detection: “not detected” (primary human hepatocytes; substrate; with: venetoclax).
Under “percentage of drug-related material”, `NCCNc1nnnc2c1sc1nc(N3CCOCC3)c3c(c12)CCCC3` is recorded as 10% (cryopreserved human hepatocytes; UHPLC-MS peak area; 1 µM, 120 min).
For `Cc1ccc(NC(=O)CCC(=O)N/N=C/c2ccc([N+](=O)[O-])o2)cc1C`, the translation activity was 105% and 99% (Trypanosoma cruzi; reporter mRNA translation, inhibitor, item: Renilla luciferase mRNA; cell-free extract; concentration not given, test 1; relative to: positive over negative control).
`C=C1C(=O)OC2C1CCC(C)(O)C13C=CC(C)(C21)C1(C3)C(=O)CC2(C(C)C)CC21` (centres unmarked): “maximum safe concentration” 1.25 µM (AML12 mouse hepatocytes; MTT; 24 h, 10% FBS).
With `Cn1c2ccc([N+](=O)[O-])cc2c(=O)n1Cc1ccccc1` the CC50 was 4.1 µM (BALB/c mouse peritoneal macrophages; cytotoxicity, resazurin; 48 h, 10% fetal bovine serum).
`CNC(=O)C1CCCN(C(=O)C2CC3CCC2N3C(=O)[C@@H]2C[C@@H](O)CN2C(=O)NCc2cccc(Cl)c2F)C1` (mixture of isomers) gave a dextrorphan formation of 143 ng/mL (Cytochrome P450 2D6 (CYP2D6, Homo sapiens, UniProt P10635); enzyme activity, inhibitor, time-dependent inhibition; 5.56 µM, preincubated with NADPH).
`C=C1C(=O)OC2C1CCC(C)(O)C13C=CC(C)(C21)C1(C3)C(=O)OC2C3C(C)=CCC3(O)C(C)=CC(OC(C)=O)C21` (centres unmarked): “maximum safe concentration” 10 µM (AML12 mouse hepatocytes; MTT; 24 h, 10% FBS).
The viability of `[BH3-][P+]1(c2ccccc2)CCCCC1` is reported as 92.7% (PC-3; trypan blue; IC50, 72 h).
`CN1CCCNC(=O)c2cccc(c2)C(=O)NCCCN(C)CCCNc2cccc3c2C(=O)c2cccc(c2C3=O)NCCC1` has a viability of 91.3% (mouse bone marrow cells; CCK-8; 0.5 µM, 48 h; relative to: untreated).
For `C[N+](C)(CF)CCO`, the IC50 was > 150 µM (HK-2; cell growth or viability, ATP luminescence; 24 h).
`C=C1C(=O)OC2C1CCC(C)(O)C13C=CC(C)(C21)C1(C3)C(=O)OC2C3C(=C(C)CC(OC(=O)C(C)=CC)C21)CC(O)C3(C)Cl` (centres unmarked): “maximum safe concentration” 5 µM (AML12 mouse hepatocytes; MTT; 24 h, 10% FBS).
For `COc1ccc(Cc2cc([C@@H]3O[C@H](CO)[C@@H](O)[C@H](O)[C@H]3O)ccc2Cl)cc1`, the viability was 41.3 ± 1.09% (H9c2; CCK-8; 0.1 µM, with: glucose deprivation; relative to: control).

Some of these lines once more:
For `COc1cc(N2CCN(C(=O)C3CCCN3)CC2)ccc1Nc1ncc(Cl)c(Nc2ccccc2P(C)(C)=O)n1` (centres unmarked), the viability was 11% and 12% (NCI-H3122; cell growth or viability, CCK-8; 0.5 µM, 48 h).
For `CC(C)C[C@H](NC(=O)[C@H](CC(N)=O)NC(=O)[C@H](CCCNC(=N)N)NC(=O)[C@@H](CC(C)C)NC(=O)[C@H](Cc1ccc(-c2ccccc2)cc1)NC(=O)[C@H](CC(=O)O)NC(=O)[C@H](CCCNC(=N)N)NC(=O)[C@@H](CC(C)C)NC(=O)[C@H](CCCCN)NC(=O)[C@H](CCC(N)=O)NC(=O)[C@@H](NC(=O)[C@@H](CC(C)C)NC(=O)[C@H](CCCNC(=N)N)NC(=O)[C@H](CCCCN)NC(=O)[C@H](Cc1ccc(-c2ccccc2)cc1)NC(=O)CN)C(C)C)C(=O)N[C@H](C(N)=O)C(C)C`, the HC50 was 140 µM (human erythrocytes; hemolysis; 1 h, 37 °C; relative to: Triton X-100).
With `O=C1NC2(CC2)COc2ncc(F)cc2[C@H]2COCCN2c2ccn3ncc1c3n2` the structural aberrations was 0.7% (CHL; 300 µg/mL, 4 h, without S9).
`C=C1C(=O)OC2C1CCC(C)(O)C13C=CC(C)(C21)C1(C3)C(=O)OC2C3C(C)=CC(=O)C3C(C)CC(OC(C)=O)C21` (centres unmarked): “maximum safe concentration” 40 µM (AML12 mouse hepatocytes; MTT; 24 h, 10% FBS).
`CC1OC2OC3C4=C(OC3(C)C12O)C(=O)c1c(O)cccc1C4=O` (centres unmarked) has a CC50 of 12 µM (HFF; cell growth or viability, MTT; 48 h).
